Results from different studies.
Numbered parts are unrelated; each lists some results of a single study.

Series 1 — method: protein-binding microarray; molecule type: double-stranded DNA, one strand shown; matrix: in vitro; tested at: 250 nM; notes: 60-bp whole probe; added: salmon DNA 0.4 mg/ml; baseline: random background probes; direction: higher = stronger binding; all sequences stand within: GCCTAGCAC … GTCTTGATTCGCTTGACGCTGCTG
Target: Interferon regulatory factor 7, full length, phosphomimetic (IRF7, Homo sapiens, UniProt Q92985, residues 1-503, S101K/S471D/S472D/S475D/S476D/S477D/S483D/S484D/S487D)
UniProt Q92985, sequence (whole entry, unmodified, looked up): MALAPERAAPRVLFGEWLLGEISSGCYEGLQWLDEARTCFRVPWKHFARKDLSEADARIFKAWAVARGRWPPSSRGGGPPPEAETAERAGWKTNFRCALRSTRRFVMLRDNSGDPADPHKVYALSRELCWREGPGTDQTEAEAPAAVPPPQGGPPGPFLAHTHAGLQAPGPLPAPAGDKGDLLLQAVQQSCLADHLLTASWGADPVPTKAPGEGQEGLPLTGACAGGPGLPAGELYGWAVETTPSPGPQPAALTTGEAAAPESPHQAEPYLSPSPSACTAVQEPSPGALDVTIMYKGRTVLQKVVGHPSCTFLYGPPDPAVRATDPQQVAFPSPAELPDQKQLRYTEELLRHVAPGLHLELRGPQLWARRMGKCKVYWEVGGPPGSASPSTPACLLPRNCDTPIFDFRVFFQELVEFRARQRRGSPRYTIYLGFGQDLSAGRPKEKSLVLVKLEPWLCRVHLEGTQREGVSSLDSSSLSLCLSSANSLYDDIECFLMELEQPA
Oligonucleotide	log fluorescence [z-score]
TCATGTCTGCCTTTCAAACTGTGCTAG	-0.179
TTAGGACTGAGTATCGATTAGTGCTAG	0.665
TTAGGGATCGGACTGGGTTAGTGCTAG	-0.12
TCATATTTAAGCTCCTATACTGTGCTA	0.362
TTAGTACTGGGGTTTCGGTTAGTGCTA	5.46
GACGGTTTCGGTTTCGGGTCGTGCTAG	15.2
GCCGGTCTCGGTCTCGGGACGTGCTAG	1.03
GAGGGACTGCTTCTCCTGACGTGCTAG	-0.281
GACGATTTCAGCTCCGAGACGTGCTAG	-0.0856
TTAGGTTTCCTTATGCTTTAGTGCTAG	2.11
GACGCACTGGACACTGGGGACGTGCTA	-0.239
TCAGTTTTCTAAACCATACTGTGCTAG	1.33
GACGGTTTCCTTTCCTTGACGTGCTAG	4.49
TTAGGTTCCGGCTTCGGTTAGTGCTAG	2.08
TTAGGTTTCGGGTAACGGTTAGTGCTA	7.75
GACGGACTGGGGTTTCGCGACGTGCTA	-0.46
TTAGGTTTCGGTCTAGGTTAGTGCTAG	8.59
TTCTCTTTCACTGCTGCCCTGTGCTAG	1.04
GACGGTCTCGGACTGGGGTCGTGCTAG	0.227

Series 2 — method: RNA Bind-n-Seq; molecule type: RNA; matrix: in vitro; tested at: 100 nM; baseline: input RNA pool; direction: higher = stronger binding
Target: RING finger protein unkempt homolog, zinc fingers 1-6, SBP tag (UNK, Homo sapiens, UniProt Q9C0B0, residues 30-357)
UniProt Q9C0B0, sequence (30-357, looked up): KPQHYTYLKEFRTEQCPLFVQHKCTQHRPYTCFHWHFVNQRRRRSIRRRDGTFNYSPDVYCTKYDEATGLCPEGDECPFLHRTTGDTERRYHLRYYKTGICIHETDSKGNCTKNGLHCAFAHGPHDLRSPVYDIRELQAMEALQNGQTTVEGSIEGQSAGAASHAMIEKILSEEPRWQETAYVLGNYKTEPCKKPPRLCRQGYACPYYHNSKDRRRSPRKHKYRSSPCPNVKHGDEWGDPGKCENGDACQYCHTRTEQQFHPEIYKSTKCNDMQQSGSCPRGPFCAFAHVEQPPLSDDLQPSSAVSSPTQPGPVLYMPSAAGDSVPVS
Notes: RNA with constant flanks, vertebrate orthologous sites, ends assumed
Oligonucleotide	bound/input enrichment [ratio]
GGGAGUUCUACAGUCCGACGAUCAUUCAACAAAAAAUGUUUCCACUGGGUUUUUUUCUGUAAGAAAAAAUGAACCCAAACAUAUAGAGCUUUUUCAUAGCACUAACCAAUGCCUUUUUAGAUGUAUUUUUGAUGUAUAUAUCUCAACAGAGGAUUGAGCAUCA	0.755
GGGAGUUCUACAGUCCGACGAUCAAUUGAAUAAAAACGUUUCCACUGGGUUUUGCCUGCAAGAAAAAAAUGUACCCGAGCCCAUAGAGCUUUUUAAUAAUAGCACUAAACAAUGCCUUUUUAGAUGUAUUUUUGAUGUAUAUACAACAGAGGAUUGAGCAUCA	0.894
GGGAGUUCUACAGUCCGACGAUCUUGGACCUCCUGAACUAACUUUCGAGCUGUGGCUGUUUUUGAUAGUGAUUUCAUUUUCUUUAGGACUUUCCCAUUUCCUGCCUUCUCUCCUCCUGUUCCCAAGGCUUGACUUGUGGAUGGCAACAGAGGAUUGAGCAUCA	0.708
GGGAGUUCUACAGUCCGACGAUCAGGAAAUGCUGGCUGCAAACCCUCAGGAUCGCCCAGAUGCUUUUGAACUAGAACUCAGAUUAGUACAAAUUGCAUUUAAAGAUAGCAGCUGGGAAACGUGACACAUAUUAUUUGCAAAUACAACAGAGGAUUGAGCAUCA	0.685
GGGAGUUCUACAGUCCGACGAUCAUGAAACUUGGAAGGAUAGUGUAUGAGGCUGGGGUCAAAAAGAAGGUACACUCAAGAGGAGGUAUUAUUAAUAGUCAGGUGUCUAAGAGUAGAAAUGAAAGUCAUUGCAACUCAAGAAACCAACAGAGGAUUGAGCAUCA	0.531
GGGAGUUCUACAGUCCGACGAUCCCGAAAGGCCAAAUUCCCUCCUCUCUUCUACUGCUUCUACCAACUGGAAGCACAGAAAACUAGAAUUUCAUUAUUUUGUUUUGAAAAAAUAUAUGUUGAUUUCUUGUAACAUCCAAUAGGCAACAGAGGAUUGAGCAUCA	0.542
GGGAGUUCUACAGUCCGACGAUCGGCAACCGGUGGGGGGAAUCCUCUGCCUUGGCCUUGCCUCCCCUCUCUGCUACCUGCCUCUAGUUAUUUUUUUUUAACCAUCACGUGAUUAUGGUCGGCGCUGUCUCCCCCCGACCUGCUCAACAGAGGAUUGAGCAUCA	2.01
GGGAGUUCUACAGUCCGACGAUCAACAUGGUGGUUGUACAUUAUUUCAUUUAGAAAAUAUAAACUUUAAUUUUGUUUUGAAGUUAGGUGUUAAACUGGAAUAGUUAUCAUACCCCAGAUAAUGGGGCAGUUGUGCCCUUCCCUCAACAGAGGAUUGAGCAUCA	2.37

Series 3 — method: RNA Bind-n-Seq; molecule type: RNA; matrix: in vitro; tested at: 200 nM; notes: whole 134-nt RNA, ends assumed; added: 150 mM KCl; baseline: input library; direction: higher = stronger binding
Target: Ras GTPase-activating protein-binding protein 1, full length (G3BP1, Homo sapiens, UniProt Q13283)
UniProt Q13283, sequence (whole entry, looked up): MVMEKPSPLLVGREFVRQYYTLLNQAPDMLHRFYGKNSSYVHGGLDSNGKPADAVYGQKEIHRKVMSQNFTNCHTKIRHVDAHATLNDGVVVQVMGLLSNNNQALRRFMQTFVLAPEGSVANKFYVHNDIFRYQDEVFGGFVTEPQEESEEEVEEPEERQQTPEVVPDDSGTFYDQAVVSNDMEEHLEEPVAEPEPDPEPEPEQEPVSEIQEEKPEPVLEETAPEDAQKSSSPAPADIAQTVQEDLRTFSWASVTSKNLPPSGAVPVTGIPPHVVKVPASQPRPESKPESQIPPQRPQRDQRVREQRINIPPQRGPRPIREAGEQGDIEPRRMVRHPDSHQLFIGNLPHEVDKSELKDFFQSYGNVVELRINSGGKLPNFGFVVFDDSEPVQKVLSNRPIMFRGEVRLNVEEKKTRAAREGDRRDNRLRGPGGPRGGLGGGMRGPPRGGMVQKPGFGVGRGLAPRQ
Oligonucleotide	log2 enrichment
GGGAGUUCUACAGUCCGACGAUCCCUGUGCUACACAUCGUAUGUACCGAAUCGGGGUUUUUUUGGGGAAAAAAAGGGGUGGGGAAAGUAUUAUGUUACGCCGUUCGGAUCUGCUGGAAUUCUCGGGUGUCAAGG	0.372
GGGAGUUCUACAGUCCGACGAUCCACAGACAACACGCACCCACACAGACACAUAGGGAAGGGGUUGGGAUGGGGACAGGGUGCACAGCAGGGCGGGGUAGGACCCCAGCCCCUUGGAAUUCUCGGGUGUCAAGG	1.82
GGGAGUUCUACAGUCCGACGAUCUAACUUUAGAGGAGGAUCUGAUGGAUAUGGCAGUGGACGUGGAUUUGGGGAUGGCUAUAAUGGGUAUGGAGGAGGACUUGGAGGUGGCAAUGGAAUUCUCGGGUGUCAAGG	0.178
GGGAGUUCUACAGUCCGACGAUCAAGUCCUGUGCUACACAUCGUAUGUACCGAAUCGGGAAAGGGAAAGGGGAAAGGGGAAAGUAUUAUGUUACGCCGUUCGGAUCUGCACUUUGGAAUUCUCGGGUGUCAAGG	0.356
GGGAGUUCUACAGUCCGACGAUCAGUCCUGUGCUACACAUCGUAUGUACCGAAUCGGGCCCCCGGCCCCCGGCCCCCGGGAAAGUAUUAUGUUACGCCGUUCGGAUCUGCACUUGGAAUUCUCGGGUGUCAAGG	-0.531
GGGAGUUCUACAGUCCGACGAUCUGUGCUACACAUCGUAUGUACCGAAUCGGGGAAAAAAAGGGGAAAAAAAGGGAAAAAAAGGGAAAGUAUUAUGUUACGCCGUUCGGAUCUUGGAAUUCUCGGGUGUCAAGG	-0.549
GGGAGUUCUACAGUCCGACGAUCAGGCCCUGGUGGCAUGCGGGGAGGAAGAGGUGGCCUCAUGGAUCGUGGUGGUCCCGGUGGAAUGUUCAGAGGUGGCCGUGGUGGAGACAGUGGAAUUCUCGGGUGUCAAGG	0.462
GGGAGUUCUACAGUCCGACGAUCAGUCCUGUGCUACACAUCGUAUGUACCGAAUCGGCCCCCGGCCCCCGGCCCCCGGGGAAAGUAUUAUGUUACGCCGUUCGGAUCUGCACUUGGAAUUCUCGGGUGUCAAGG	-0.527
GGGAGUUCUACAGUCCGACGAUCUCCUGUGCUACACAUCGUAUGUACCGAAUCGGCCCCCCCGGCCCCCCCGGGCCCCCCCGGAAAGUAUUAUGUUACGCCGUUCGGAUCUGCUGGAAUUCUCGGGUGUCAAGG	0.385

Series 4 — method: universal PBM; molecule type: double-stranded DNA, one strand shown; matrix: in vitro; tested at: 600 nM; direction: higher = stronger binding
Target: Sal-like protein 4, full length isoform A (SALL4, Homo sapiens, UniProt Q9UJQ4, residues 1-1053)
UniProt Q9UJQ4, sequence (whole entry, looked up): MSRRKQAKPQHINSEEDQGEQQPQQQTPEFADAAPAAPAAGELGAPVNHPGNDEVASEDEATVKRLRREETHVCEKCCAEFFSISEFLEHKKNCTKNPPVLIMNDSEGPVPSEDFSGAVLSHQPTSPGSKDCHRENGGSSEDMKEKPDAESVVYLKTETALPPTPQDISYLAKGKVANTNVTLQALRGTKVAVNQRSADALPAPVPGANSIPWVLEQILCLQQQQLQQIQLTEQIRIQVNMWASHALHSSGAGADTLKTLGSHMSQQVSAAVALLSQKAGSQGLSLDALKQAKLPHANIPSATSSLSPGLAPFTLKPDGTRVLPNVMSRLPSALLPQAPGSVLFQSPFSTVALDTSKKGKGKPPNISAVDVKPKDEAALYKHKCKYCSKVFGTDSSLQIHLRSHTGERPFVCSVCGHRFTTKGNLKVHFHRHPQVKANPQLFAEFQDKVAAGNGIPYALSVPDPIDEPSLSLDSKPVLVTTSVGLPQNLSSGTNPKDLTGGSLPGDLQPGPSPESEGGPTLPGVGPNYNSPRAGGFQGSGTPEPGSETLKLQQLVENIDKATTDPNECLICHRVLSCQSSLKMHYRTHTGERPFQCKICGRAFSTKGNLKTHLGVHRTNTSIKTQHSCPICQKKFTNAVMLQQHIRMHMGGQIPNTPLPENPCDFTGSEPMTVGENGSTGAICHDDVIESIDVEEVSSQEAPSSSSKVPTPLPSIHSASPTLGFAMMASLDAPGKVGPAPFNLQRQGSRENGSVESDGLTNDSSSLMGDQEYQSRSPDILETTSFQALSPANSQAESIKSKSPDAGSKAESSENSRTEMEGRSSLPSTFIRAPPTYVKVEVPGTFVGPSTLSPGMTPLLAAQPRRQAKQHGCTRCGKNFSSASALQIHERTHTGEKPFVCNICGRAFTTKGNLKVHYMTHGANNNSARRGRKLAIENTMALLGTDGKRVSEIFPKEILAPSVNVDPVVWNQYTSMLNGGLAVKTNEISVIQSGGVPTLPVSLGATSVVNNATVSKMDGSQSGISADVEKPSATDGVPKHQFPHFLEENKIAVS
Notes: 8-mer, flanks averaged, mean of replicates
Oligonucleotide	E-score
CGCAGAAC	-0.0731
CGCTTGAG	-0.113
AGGGTGAG	-0.174
AAACTGTG	0.00776
ACAGTTAC	0.21
ATCCACCA	0.0517
AGGCCCAA	-0.135
CTCCTAAA	-0.0337
ACCTTTCG	-0.152
TGGGCCAA	-0.0944
AGGCGGTG	-0.295
CGTCTCAG	-0.146
TTGAGCAA	0.0927
AGGGGCAC	-0.312
AATGTTGA	0.217
GACATGGC	-0.0775
ACACACGC	0.06
CTAGACGC	-0.0846
ACCACTTC	-0.0398
GTCGATCA	-0.0298
CGTATACC	-0.199
ATAGACAC	0.0301
ACCATCGC	-0.0701
ACAGGAGC	-0.0256
ATCTTCCG	-0.0319

Some of these lines once more (series 4):
Oligonucleotide	E-score
AGGCCCAA	-0.135
CTCCTAAA	-0.0337
ACCTTTCG	-0.152
TGGGCCAA	-0.0944
AGGCGGTG	-0.295
CGTCTCAG	-0.146
